Results gathered from unrelated publications.
Each numbered part is a random draw from the data of one study; scales do not carry over between parts. Changes are numbered by the printed parent chain.

Study 1 — method: DHFR PCA, deep sequencing; sample: yeast; added: (+)-ABA 0.39 µM; relative to: wild-type fitted maximum; reading: higher = stronger binding
Target: ABI1, truncated, D143A, DHFR fusion (Arabidopsis thaliana)
Setting: methotrexate growth selection, single substitutions
Starting sequence: PYL1, truncated, DHFR fusion (Arabidopsis thaliana); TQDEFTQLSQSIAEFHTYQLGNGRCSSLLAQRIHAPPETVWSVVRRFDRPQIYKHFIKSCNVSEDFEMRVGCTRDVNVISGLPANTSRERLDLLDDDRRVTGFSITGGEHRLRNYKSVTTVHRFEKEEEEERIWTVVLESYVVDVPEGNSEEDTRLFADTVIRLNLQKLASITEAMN
Variant | relative binding score [%]
C60L | 7.31
I105N | -5.39
T17W | -13.2
K126I | 43.3
T173V | 30.6
E152P | -16
H55E | 36.1
F103M | -3.59
C72R | 1.86
R69M | 26
V142I | 31.3
R113G | 12.2

Study 2 — target: FOSB, bZIP domain (human); method: DHFR protein complementation; sample: yeast; relative to: wild-type JUN-FOS pair; reading: higher = stronger binding
Setting: single substitutions, most at no-binding floor
Starting sequence: JUN, bZIP domain (human); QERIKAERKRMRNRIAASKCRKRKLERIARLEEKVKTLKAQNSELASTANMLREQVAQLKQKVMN; partner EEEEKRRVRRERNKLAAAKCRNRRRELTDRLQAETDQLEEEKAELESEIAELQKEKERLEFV
Variant | binding fitness [natural log]
N42Y | -0.763
E32N | -0.369
E54R | -0.161
I28Q | -0.0955
L38A | -0.759
E33H | -0.287
Q41E | -0.1
K34A | -0.212
A40W | -0.337
A46G | -0.378
R53P | -1.17

Study 3 — target: CCNE2, cyclin fold, Cln2 fusion (human); method: yeast growth competition, sequencing; sample: yeast; setting: strong parent motif; relative to: not given; reading: higher = stronger binding
Starting sequence: RBL2 docking peptide (human); STTRRRLFVENDS; partner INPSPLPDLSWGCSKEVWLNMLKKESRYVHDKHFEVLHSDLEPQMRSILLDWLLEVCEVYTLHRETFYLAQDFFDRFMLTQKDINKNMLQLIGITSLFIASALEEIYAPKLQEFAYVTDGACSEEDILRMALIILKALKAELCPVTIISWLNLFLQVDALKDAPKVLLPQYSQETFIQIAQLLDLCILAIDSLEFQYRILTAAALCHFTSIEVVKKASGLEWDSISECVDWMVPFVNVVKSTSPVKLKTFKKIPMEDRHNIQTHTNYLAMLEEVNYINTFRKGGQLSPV
Variant | normalised enrichment score
STTRRRLFQENDS [V9Q] | 4.41
STTRRQLFVENDS [R6Q] | 3.71
PTTRRRLFVENDS [S1P] | 4.52
STTCRRLFVENDS [R4C] | 3.97
STTFRRLFVENDS [R4F] | 1.85
STTRRRLFGENDS [V9G] | 2.32
STTRRRLFVDNDS [E10D] | 5.45
STTRRDLFVENDS [R6D] | 0.362
STTRRRLFVENMS [D12M] | 2.97
STTRPRLFVENDS [R5P] | 1.18
STTHRRLFVENDS [R4H] | 1.08
STTRARAFVENDS [R5A L7A] | -0.0514
STTRRRLFWENDS [V9W] | 3.63
FTTRRRLFVENDS [S1F] | 4

Study 4 — method: universal PBM; molecule type: double-stranded DNA, one strand shown; sample: in vitro; concentration: 600 nM; reading: higher = stronger binding
Target: Sal-like protein 4, full length isoform A (SALL4, Homo sapiens, UniProt Q9UJQ4, residues 1-1053)
Sequence of UniProt Q9UJQ4 (whole entry, looked up): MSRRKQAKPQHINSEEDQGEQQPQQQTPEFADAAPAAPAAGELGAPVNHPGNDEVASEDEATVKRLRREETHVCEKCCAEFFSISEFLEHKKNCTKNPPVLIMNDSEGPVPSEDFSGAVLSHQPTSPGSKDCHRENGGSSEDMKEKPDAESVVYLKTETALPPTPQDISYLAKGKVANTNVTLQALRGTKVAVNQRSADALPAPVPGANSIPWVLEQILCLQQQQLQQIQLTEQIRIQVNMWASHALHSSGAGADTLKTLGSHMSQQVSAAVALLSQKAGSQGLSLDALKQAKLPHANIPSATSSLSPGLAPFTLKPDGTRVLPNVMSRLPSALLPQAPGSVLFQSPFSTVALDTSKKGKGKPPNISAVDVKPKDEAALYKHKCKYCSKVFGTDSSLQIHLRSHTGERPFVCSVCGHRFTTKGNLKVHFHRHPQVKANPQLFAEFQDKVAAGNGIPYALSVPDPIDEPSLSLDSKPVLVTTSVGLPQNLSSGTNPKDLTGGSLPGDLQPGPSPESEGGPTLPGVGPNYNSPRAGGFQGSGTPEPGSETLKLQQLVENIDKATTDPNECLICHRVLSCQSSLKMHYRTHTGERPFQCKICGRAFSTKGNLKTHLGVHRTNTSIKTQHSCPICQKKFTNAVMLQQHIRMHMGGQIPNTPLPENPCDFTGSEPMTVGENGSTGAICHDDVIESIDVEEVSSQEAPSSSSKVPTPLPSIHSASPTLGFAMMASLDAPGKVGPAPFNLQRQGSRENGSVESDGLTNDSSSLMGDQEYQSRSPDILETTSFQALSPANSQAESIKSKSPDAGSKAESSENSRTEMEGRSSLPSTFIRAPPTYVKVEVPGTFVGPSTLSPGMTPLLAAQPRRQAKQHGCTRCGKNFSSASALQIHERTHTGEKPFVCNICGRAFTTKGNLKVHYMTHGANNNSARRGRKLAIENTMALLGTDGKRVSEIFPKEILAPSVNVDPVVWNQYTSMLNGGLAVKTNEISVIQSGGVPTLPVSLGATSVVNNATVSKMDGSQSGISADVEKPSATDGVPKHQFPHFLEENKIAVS
Setting: 8-mer, flanks averaged, mean of replicates
Oligonucleotide | E-score
AGACTGAC | -0.0736
GGAGTCAA | -0.0296
GATACTAC | 0.0617
ATTAATTG | 0.381
AGCGAACA | -0.0401
CGACTCTA | -0.103
GCCTCAAC | -0.0202
CCTTAGAC | 0.0175
CAGGTAGA | 0.00789
ACCAGCGA | -0.239
CGCCGGTA | -0.288
CGGGGAGA | -0.345
AAAAGGTC | -0.0291
CAAGATTA | 0.181
GTGTCACA | 0.0341
ACCAGGGA | -0.292

A few entries again (study 3):
Variant | normalised enrichment score
STTRARAFVENDS [R5A L7A] | -0.0514
STTRRRLFWENDS [V9W] | 3.63
FTTRRRLFVENDS [S1F] | 4
